Published values from different studies.
Each numbered part is a random draw from the data of one study; scales do not carry over between parts.

Series 1
Target: RING finger protein unkempt homolog, zinc fingers 1-6, GST-SBP tag (UNK, Homo sapiens, UniProt Q9C0B0, residues 30-357)
Technique: RNA Bind-n-Seq
Molecule type: RNA
Medium: in vitro
Concentration: not given
Notes: RNA with constant flanks, human-mouse chimeric sites, ends assumed
Reference: input RNA pool
Direction: higher = stronger binding
Endpoint: bound/input enrichment
All sequences stand within: GGGAGUUCUACAGUCCGACGAUC … CAACAGAGGAUUGAGCAUCA
Residues (chain): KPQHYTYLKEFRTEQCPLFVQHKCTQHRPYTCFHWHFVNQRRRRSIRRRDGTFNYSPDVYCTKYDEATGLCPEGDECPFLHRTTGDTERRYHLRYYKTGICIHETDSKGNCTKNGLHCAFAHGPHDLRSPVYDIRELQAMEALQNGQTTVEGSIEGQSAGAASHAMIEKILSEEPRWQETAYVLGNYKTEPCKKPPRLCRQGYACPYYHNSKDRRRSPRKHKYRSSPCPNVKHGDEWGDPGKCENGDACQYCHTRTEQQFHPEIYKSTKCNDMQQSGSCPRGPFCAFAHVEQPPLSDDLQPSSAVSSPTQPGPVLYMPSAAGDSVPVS
UCAGAAGCUGUGCUGGGUCACUUUUCAUAUCCUGAUCCUUCACAGUGGACAGAUGAAGAACUGGGAAUCCCUCCUGAUGACGAGGACUGACACUGUAAACUCUCUGGACGAGUAGGAGCA: 0.656 ratio
CACACCCUCUUCUGCGGGACCCUCAUCCUGCAGGCCCGGGCCUAUGUGGGACCGCACGUCCUGGCAGUGGUGACCCGCACAGGGUUCUGCACGGCAAAAGGGGGCCUGGUGAGCUCCAUC: 0.0531 ratio
UCCCAAAUCCAGCAGCUCCUUGAAAUAUUGAGACAAAGCCUGGAAAUACAGGGAAGGCGAUAACAUUGUACAUUGGUUUACAUUUUUUCCCCCUGUGGAUUUUUCUAGAGGUCAUAGUGC: 0.354 ratio
UAAGUCCAUUUGUAAGCCUUCGCUCAUAAAGUUUUAAAUUCAAGAAAAAUAGUGUUUGUUUCCUGAUUAUUGUAUCCAAUACUUUGCCUAGUAUGUAACUCACUCUUACUGAUAAUAAAA: 6.06 ratio
CAGCGCCGAGGCCGCGGUUUCCCCCUGGGCCUCCCCAGCAGCAGCCAUGGGCAUCAAGUUUUUAGAAGUUAUCAAACCAUUCUGUGCAGUUCUACCAGAAAUUCAGAAACCGGAAAGGAA: 1.16 ratio
CAGUCCCCGUGUCCCAGUGCAGGACGAUGUGAACAAAAACUCAAAGCGGACCCUCUAUUGUAGUUCUUGAUUCUCGAGUGCCAUUAUUAUUGUUUGUCUUUUUUUUUAAAAGAAAAGAGA: 0.21 ratio
AGGAGGAGGUUAAAGGGUGAGAGUGGGAUGGAGGAUUGUGUCAUGGCUCUGGAGACACUGUUCAGUGUCCUGCUUUCUCUUUGCAGACUGAUGGCCCCUUACACGCCCUUUCUGACUGAG: 0.158 ratio
UAUAAUAAUCAUGAAAUUCGUUCCGGGAAGCACAUUGGUGUCUGCAUCUCAGUUGCCAACAAUAGGCUUUUUGUGGGCUCUAUUCCUAAGAGUAAAACCAAGGAACAGAUUCUUGAGGAA: 0.437 ratio
CUGUGUGGCUUACUAAAAUGGCUUGUAAAGAAGUUUUCCAAGUUGUAAACCCAUGCUGUUAUUAUAGUUGCUGCAAAAUGUUCUUCCUGAUAUUGAUUUUAUUUGUUAACUGAAGGUCUC: 0.528 ratio
CUUAUGGCUGCAGAAACAGGAAGUGGAAAAACUGGUGCAUUUAGUAUUCCCGUUAUCCAGAUAGUUUAUGAAACUCUGAAAGACCAACAGGAAGGAAAGAAAGGGAAAACAACUAUUAAA: 0.971 ratio
GCGGCAGAAUCAUGGAGGACAUAAUGCAGCUCCCCAAGUCGCGCAUCAACGCCGGCAUGUUACCACAGUAUAUCGACCGGCCCGUGUGCUUCGUGGGGAAGCUGGAAAAGAUUCAUCCCA: 0.07 ratio

Series 2
Target: Interferon regulatory factor 5, full length, phosphomimetic (IRF5, Homo sapiens, UniProt Q13568-2, residues 1-514, S451D/S453D/S456D/S462D)
Technique: protein-binding microarray
Molecule type: double-stranded DNA, one strand shown
Medium: in vitro
Concentration: 940 nM top
Notes: 60-bp whole probe
With: salmon DNA 0.4 mg/ml
Reference: random background probes
Direction: higher = stronger binding
Endpoint: fitted relative affinity
All sequences stand within: GCCTAGCAC … GTCTTGATTCGCTTGACGCTGCTG
TCTCCTCTAGGTTCTCTGAGAGTGCTA: 1.3 z-score
TCAACTCTTTCTGTCAGACTGTGCTAG: 1.26 z-score
TCAACTTTTATTTTCAGACTGTGCTAG: 0.858 z-score
GAGGGACTGGACTATCGGGACGTGCTA: -0.525 z-score
GACGATATCGGGACTGGAGGCGTGCTA: -0.398 z-score
GACGGTCTCAGTCTCGGGACGTGCTAG: 1.79 z-score
TTAGGGATCGGTATCGGTTAGTGCTAG: 4.69 z-score
GGCGGTTTCCTTATCCTGACGTGCTAG: 2.05 z-score
GACGGATTGGGTTTCGGGACGTGCTAG: 3.54 z-score
ATTTTTTTCTAATTGAAATCGTGCTAG: 0.424 z-score
GACGATTTCAGACTGGGGACGTGCTAG: -0.104 z-score

Series 3
Target: Histone acetyltransferase KAT6A, winged helix 2, GST fusion (KAT6A, Homo sapiens, UniProt Q92794, residues 85-181)
Technique: protein binding microarray
Molecule type: double-stranded DNA, one strand shown
Medium: in vitro
Concentration: not given
Notes: 8-mer, flanks averaged, mean of 2 arrays, mostly near background
Reference: not given
Direction: higher = stronger binding
Endpoint: E-score
Residues (chain): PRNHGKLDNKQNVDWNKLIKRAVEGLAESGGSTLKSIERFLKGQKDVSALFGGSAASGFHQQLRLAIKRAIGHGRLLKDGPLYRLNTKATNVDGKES
CGCCTTAA: 0.138
CTCAACAA: 0.21
GCACCTCA: 0.126
ACAACCGG: -0.00912
TCGCCGCA: 0.167
GCTACCAA: -0.0116
GTTGGACA: -0.0164
CAAAGCTA: 0.0506
AGACTTTG: -0.232
GGAATTAA: 0.0985
CTCGTTAA: -0.0889
TAACTGTA: -0.19
ACTAGCAA: 0.00788
ACGTGTCA: -0.16
CGTAAGGC: -0.263
CTAGCTAC: -0.00707
CTGCTTGC: 0.0438
AAGGGCGC: 0.169
AGGTGCTG: 0.0933
ACGTGAAT: -0.117
AAGGTACA: -0.0872
TCGTCAAA: 0.125
CAACTTTC: -0.0223
GGCCCGCC: 0.042
TCGCCCCA: 0.00365

Series 4
Target: RNA binding protein fox-1 homolog 2, RRM domain, GST-SBP tag (RBFOX2, Homo sapiens, UniProt O43251-10, residues 100-194)
Technique: RNA Bind-n-Seq
Molecule type: RNA
Medium: in vitro
Concentration: 365 nM
Notes: natural RNA segment, single round, ends assumed
Reference: no-protein control
Direction: higher = stronger binding
Endpoint: RBNS enrichment (R)
All sequences stand within: GGGAGUUCUACAGUCCGACGAUC … UGGAAUUCUCGGGUGCCAA
Target sequence (chain): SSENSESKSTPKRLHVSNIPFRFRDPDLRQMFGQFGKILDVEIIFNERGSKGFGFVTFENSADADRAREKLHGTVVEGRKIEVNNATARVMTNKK
GGUGUUGGCAAUGGUCCUGGAGGGAAUGGCCUGGGCGUAGGCUGCCUCCAGCUGCCCGUAACCACCGAUCUGGUCAAAAGCUGGAGGGGUCAGGGUGGAACAGGGACAGU: 0.948
UAGAUGGUUUUGAAAAAUGAACUGAGCUGCCUUCCCCCGUCGCAUAACCAGUUCCAUCAUCCUGGUGGAACUUGAACAUUUAGAGUUUAUCUAGAGAGCUUGGUUAAUCU: 0.431
AUCACUUUAAUUGUAAUGAUAGAUAAAUAAGACAGGACAAACUACAGUUUGUCUCAGAGGAAUCCAAGGAUUCUUUUUCAGACAAGUUGUAGGUCCCGCAUACAUGUCCA: 0.282
CCAAGACUGGAACAUCCUUCUGACUGGAUAAAUAAAUAAAACACCUGGGCCUCACCCUUAGACUGAGGCUGCACCCAUUCCUUAGAGGCUACUUCAGUUGCCUGACAAGA: 0.99
UUUCAUAAUGGAAUGAUUUAAAUUGAAGUGACAAAGAGUAUUAUUAAAAUACAAUGUUUAUACGUCUUUUGUGUAUUGUAGAUGUAUCAAGUGAUUUCUAAUUUUUUUCA: 3.85
CCCGCCCAGGCUGGCCAGCCCCACAGCCCACGUCCUGUCAGUGCCGCCGCCUCGCCCACCGCAUGCCCCCUCGUGCCAGUCGCGCUGCCUGUGUGGUGUCGCGCCUUCUC: 3.75
UGGAGGGGGCAGAAGAAAGAAAUAAACCUCAUCCUAUAUUUUACAAAGCAUGUGAAUUCUGGCAUUAGCUCUCAUAGGAGACCCAUGUGCUUCCUUGCUCAGUGCAAAAC: 1.57
UCUCUGAAUCACUCUUCAAUCUUGGGCCUCUAUUGCCUUACUUCAAAUAUUGUACCUUGUUUAGCCUACCUCACAGGGCUGUUGUGAGGAGUGUAGUGAAACGGACUCUC: 0.279
UCCAAAUUUAUAUUUCGGGGAAAUACCAUGAGAUAAUUAUAGCAUACUGGGCAUGUGUCCACACACGGAUUGGUUUCACUGCUUUAUAAAUAAAAGGAACAACUCUGGGU: 0.83
GUGUAAAGAAAAUAGUUUCUUGGGUAUUUGUAACGUACAAACUAUCAUAAAAAUUCUCCUCUUUCGCUCUCACUUUGUCUCUUCUAAGUCGGCCUCAGCAAUAGCCCAGG: 0.446
UGUUUCAGAAUUUUGUAUAUUGUAGGAAUCCUUUGAGAAUGUGAUUCCUUUUGAUGGGGAGAAAGGGCAAAUUAUUUUAAUAUUUUGUAUUUUCAACUUUAUAAAGAUAA: 0.724
CUGACUUUGCCUAUAUAUCUUUCUGGGGUUUUGUUUGUGUUUAAUUUUUAUUUUGCAUACUGAGGGUAUUUGGGGUGGGGUUGUUUUUUGAGAUGUGUAAUUCUUUUAUG: 2

Series 5
Target: Sal-like protein 4, full length isoform B (SALL4, Homo sapiens, UniProt Q9UJQ4-2, residues 1-616)
Technique: universal PBM
Molecule type: double-stranded DNA, one strand shown
Medium: in vitro
Concentration: not given
Notes: 8-mer, flanks averaged, mean of replicates
Direction: higher = stronger binding
Endpoint: E-score
CGTAGAAC: -0.146
ATTAATTA: 0.401
AACTTACT: 0.0236
GCAAATAA: 0.213
GCGCAGCC: -0.356
TACGAACA: 0.217
CCTTCATC: -0.171
GGAATACA: 0.16
ATCTGTGA: 0.0694
CGAACGGC: -0.204
GAACAGTA: 0.128
TGGAAGAA: 0.146
AACGGCCT: -0.19
AACCCGTA: -0.0273
CGGGCCAG: -0.333
CTAGGCAG: -0.197
ATGCTTGA: 0.112
CATTAGAG: -0.00817
AGAGAGCA: -0.18
ATCTGAAT: 0.102
CAACGGGA: -0.193
ATACCTCA: 0.122
AGCTTTAG: 0.0218

For quick reference, copied from above (series 5):
TGGAAGAA: 0.146
AGCTTTAG: 0.0218
CTAGGCAG: -0.197
GCAAATAA: 0.213
GAACAGTA: 0.128
AACTTACT: 0.0236
ATCTGTGA: 0.0694
TACGAACA: 0.217
CAACGGGA: -0.193
GGAATACA: 0.16
GCGCAGCC: -0.356
CGAACGGC: -0.204
CATTAGAG: -0.00817
